Measured values pooled from the literature.
Lines come from different studies, so protocols differ. ± marks the error that the study gave.

`CCS(=O)(=O)c1ccccc1C(=O)N1CCN(c2nc3ccc(F)cc3s2)C[C@@H]1C` — result for “volume of distribution”: 7.4 ± 1.1 L/kg (mouse; oral, 3 mg/kg).
For `CC(C)C[C@H](NC(=O)[C@H](C)NC(=O)[C@H](C)NC(=O)[C@H](CCC(N)=O)NC(=O)[C@H](C)NC(=O)[C@H](CO)NC(=O)[C@H](CC(C)C)NC(=O)[C@H](C)NC(=O)[C@@H](NC(=O)[C@H](C)NC(=O)[C@H](Cc1ccc(O)cc1)NC(=O)[C@H](CO)NC(=O)[C@H](CCCCN)NC(=O)[C@H](C)NC(=O)[C@H](Cc1ccccc1)NC(=O)[C@H](CCCCN)NC(=O)[C@H](C)NC(=O)[C@H](Cc1ccccc1)NC(=O)[C@H](CCCCN)NC(=O)[C@H](CCCCN)NC(=O)[C@H](C)NC(=O)[C@H](Cc1ccccc1)NC(=O)[C@H](CCCCN)NC(=O)[C@H](C)NC(=O)[C@H](Cc1ccccc1)NC(=O)[C@H](CCCCN)NC(=O)[C@H](CCCCN)NC(=O)[C@H](C)NC(=O)[C@H](Cc1ccccc1)NC(=O)[C@H](CCCCN)NC(=O)[C@H](C)NC(=O)[C@H](Cc1ccccc1)NC(=O)[C@@H](N)CCCCN)C(C)C)C(=O)N[C@@H](C)C(=O)N[C@@H](CCCNC(=N)N)C(=O)N[C@@H](CCCNC(=N)N)C(=O)O`, “volume of distribution” read 0.17 ± 0.03 L/kg (C57BL/6 mouse, male; intravenous, 0.8 mg/kg).
`CO[C@H]1/C=C/O[C@@]2(C)Oc3c(C)c(O)c4c(c3C2=O)C2=NC3(CCN(CC(C)C)CC3)NC2=C(NC(=O)/C(C)=C\C=C\[C@H](C)[C@H](O)[C@@H](C)[C@@H](O)[C@@H](C)[C@H](OC(=O)c2cccc(F)c2)[C@@H]1C)C4=O` — result for “volume of distribution”: 1.9 L/kg (CD-1 mouse; 10 mg/kg, single dose).
Under “volume of distribution”, `Oc1cc(F)ccc1Oc1ccccc1` is recorded as 33 ± 13 L/kg (CD-1 mouse, plasma; subcutaneous, 100 mg/kg).
For `NC(=O)c1c(F)ccc(OCc2nc3cc(Cl)cnc3s2)c1F`, “volume of distribution” read 1.06 L/kg (mouse, plasma; intravenous, 3 mg/kg).
`CO[C@H]1/C=C/O[C@@]2(C)Oc3c(C)c(O)c4c(c3C2=O)C2=NC3(CCN(CC(C)C)CC3)NC2=C(NC(=O)/C(C)=C\C=C\[C@H](C)[C@H](O)[C@@H](C)[C@@H](O)[C@@H](C)[C@H](OC(=O)c2cccnc2)[C@@H]1C)C4=O`: “volume of distribution” 1.6 L/kg (CD-1 mouse; 10 mg/kg, single dose).
`CCCCCCc1ccc(Oc2ccccc2C#N)c(O)c1` — result for “volume of distribution”: 40 ± 12 L/kg (CD-1 mouse, plasma; subcutaneous, 100 mg/kg).
Under “volume of distribution”, `Nc1c(S(=O)(=O)O)cc(Nc2cccc(S(N)(=O)=O)c2)c2c1C(=O)c1ccccc1C2=O` is recorded as 8 to 14 L/kg (C57BL/6J mouse, male; intravenous, 5.0 mg/kg).
`CN1CCC(N[C@@H]2CCc3[nH]c4c(C(N)=O)ccc(-c5ccccc5Cl)c4c3C2)CC1`: “volume of distribution” 120 ± 35.9 L/kg (BALB/c mouse, plasma; intravenous, 2 mg/kg).

Repeated from above:
`CN1CCC(N[C@@H]2CCc3[nH]c4c(C(N)=O)ccc(-c5ccccc5Cl)c4c3C2)CC1`: “volume of distribution” 120 ± 35.9 L/kg (BALB/c mouse, plasma; intravenous, 2 mg/kg).
